Published values collected from several papers.
Protocols differ between the studies behind these lines.
AR: Androgen receptor (AR, Homo sapiens, UniProt P10275)

CCCC1O[C@@H]2C[C@H]3[C@@H]4CCC5=CC(=O)C=C[C@]5(C)[C@H]4[C@@H](O)C[C@]3(C)[C@]2(C(=O)CO)O1 (some centres unmarked) — IC50 (Plasmodium falciparum; 7G8): 1580 nM
Clc1ccc(Cl)c(-c2ccccc2Cl)c1 — IC25 (AR; reporter gene, antagonist; 24 h, added: DHT 2 nM): 400 nM
CC(C)CC(=O)OC[C@H]1O[C@@](C#N)(c2ccc3c(N)ncnn23)[C@H](O)[C@@H]1O — inhibition (AR; 20 µM): 13%
NC(=O)c1cc(N2CC2)c([N+](=O)[O-])cc1[N+](=O)[O-] — IC50 (Androgen receptor (AR, Homo sapiens, UniProt P10275, Q868H); reporter gene, antagonist; added: R1881 2 nM): inactive
C[C@]12CC[C@H]3[C@@H](CCC4=CC(=O)CC[C@@]43C)[C@@H]1C[C@@H](O)[C@@H]2O — activity (AR; cells; concentration not given): inactive
Fc1ccc(C(OCCCc2c[nH]cn2)c2ccc(F)cc2)cc1 — IC50 (Plasmodium falciparum; 3D7): 1260 nM
Oc1ccc(-c2ccc(Cl)cc2)c(Cl)c1 — IC25 (AR; reporter gene, antagonist; 24 h, added: DHT 2 nM): 300 nM
CCC(=O)N[C@H](CCCCl)C(=O)N1C(=O)C=C(OC)[C@@H]1CCCCl — activity (Androgen receptor (AR, Homo sapiens, UniProt P10275, T878A); LNCaP; 10 µM): inactive
Clc1ccc(-c2ccc(Cl)cc2Cl)cc1 — maximum activity (AR; reporter gene, antagonist; 40 µM, added: DHT 2 nM; relative to: DHT 2 nM): 12%
c1ccc(C(NCCNC(c2ccccc2)c2ccccc2)c2ccccc2)cc1 — inhibition (AR; binding; 10 µM, Eurofins selectivity panel, added: testosterone): 62%
COCc1c(-c2cc3cc(C)cc(OC)c3s2)c2c(N)ncnn2c1CN1CCNC(=O)C1 — inhibition (AR; binding, radioligand binding; 10 µM): 12%

Repeated from above:
C[C@]12CC[C@H]3[C@@H](CCC4=CC(=O)CC[C@@]43C)[C@@H]1C[C@@H](O)[C@@H]2O — activity (AR; cells; concentration not given): inactive
